Assay results collected from several papers.
Lines come from different studies, so protocols differ. “And” joins repeats or separate records; there may be more than shown.
PFF0160c: Dihydroorotate dehydrogenase (quinone), mitochondrial (PFF0160c, Plasmodium falciparum, UniProt Q08210)
PFF0160c E182D: Dihydroorotate dehydrogenase (quinone), mitochondrial (PFF0160c, Plasmodium falciparum, UniProt Q08210, E182D)
HLA class I histocompatibility antigen, B alpha chain: HLA class I histocompatibility antigen, B alpha chain (Homo sapiens, UniProt P01889)
Sialidase-4: Sialidase-4 (Homo sapiens, UniProt Q8WWR8)

| Structure (SMILES) | target | assay | test system | setting | measurement | value |
| --- | --- | --- | --- | --- | --- | --- |
| N[C@@H](Cc1ccc(O)cc1)C(=O)N[C@@H](CC(=O)O)C(=O)N[C@@H](Cc1ccccc1)C(=O)NCC(=O)NCC(=O)O | ACE (Homo sapiens, UniProt P12821) | enzyme activity, inhibitor | – | – | IC50 | ~16.3 µM and 16.3 µM |
| CC(C)(C)OC(=O)N1CCN(C(=O)n2cc(-c3ccc(OC(F)(F)F)cc3)nn2)C(Cc2ccccc2)C1 (centres unmarked) | Diacylglycerol lipase-beta (Mus musculus, UniProt Q91WC9) | enzyme activity, inhibitor | – | – | IC50 | 0.0081 µM |
| CC[C@](N)(c1cnc(C(F)(F)F)c(Cl)c1)c1c2ncn(C3CC3)c(=O)c2nn1C | PFF0160c | enzyme activity, inhibitor | – | – | IC50 | 3.98 µM |
| Cc1cc(Nc2ccc(Cl)c(Cl)c2)n2nc(C)nc2n1 | PFF0160c E182D | enzyme activity, inhibitor, absorbance | – | – | IC50 | 1.68 µM |
| COc1cc(CCC(=O)N2CCC(Cc3ccccc3)CC2)ccc1OC(=O)N(c1ccccc1)c1ccccc1 | Cholinesterase (BCHE, Equus caballus, UniProt P81908) | enzyme activity, inhibitor, Ellman | – | – | IC50 | 29.3 µM |
| CCn1ccc2c([C@@](O)(CC)c3cnc(C(F)(F)F)c(Cl)c3)n(C)nc2c1=O | PFF0160c | enzyme activity, inhibitor | – | – | IC50 | 0.0251 µM |
| CC[C@H](C)[C@H](NC(=O)[C@@H]1CCCN1C(=O)[C@H](CCCCN)NC(=O)[C@H](Cc1ccc(O)cc1)NC(=O)[C@H](CCSC)NC(=O)[C@@H](N)CCCNC(=N)N)C(=O)N[C@H](C(=O)N[C@@H](Cc1c[nH]cn1)C(=O)N[C@@H](Cc1ccccc1)C(=O)O)[C@@H](C)O | HLA class I histocompatibility antigen, B alpha chain | cell-free assay | – | – | IC50 | 67.7 µM |
| CCCCCC(=O)N(C)[C@H]1[C@H]([C@H](O)[C@H](O)CO)OC(C(=O)O)=C[C@@H]1O | Sialidase-4 | enzyme activity, inhibitor | – | – | IC50 | 300 µM |
| NCCCC[C@H](N)C(=O)O | dapA (Escherichia coli K-12, UniProt P0A6L2) | enzyme activity, inhibitor | – | – | IC50 | 820 µM and 800 µM |
| CC[C@@](N)(c1cnc(C(F)(F)F)c(Cl)c1)c1c2ccn(C3CC3)c(=O)c2nn1C | PFF0160c | enzyme activity, inhibitor | – | – | IC50 | 0.0398 µM |
| O=c1cc(NCCCNCc2sc(Br)c(Br)c2Br)[nH]c2ccccc12 | PFF0160c | enzyme activity, inhibitor, absorbance | – | – | IC50 | 0.591 µM |
| CCn1cc(C2CC2)c2c(CN3CCCC(F)(F)C3)n(C)nc2c1=O | PFF0160c | enzyme activity, inhibitor, absorbance | – | – | IC50 | 0.053 µM |
| CCCOc1ccccc1-c1nc2sc3c(c2c(=O)[nH]1)CCN(C)C3 | PFF0160c | enzyme activity, inhibitor, absorbance | – | – | IC50 | 0.699 µM |
| CCN(C)C(=O)Oc1ccc(CCC(=O)N2CCC(Cc3ccccc3)CC2)cc1 | Cholinesterase (BCHE, Equus caballus, UniProt P81908) | enzyme activity, inhibitor, Ellman | – | – | IC50 | 12.5 µM |
| CC(C)(C)NC(=O)N[C@H]1[C@H]([C@H](O)[C@H](O)CO)OC(C(=O)O)=C[C@@H]1O | Sialidase-3 (Homo sapiens, UniProt Q9UQ49) | enzyme activity, inhibitor | – | – | IC50 | > 500 µM |
| Cn1c(=O)ccc2ccc(F)c(CCNC[C@H]3CN(c4ncc5c(n4)NC(=O)CO5)C(=O)O3)c21 | gyrA (Escherichia coli K-12, UniProt P0AES4) | enzyme activity, inhibitor | – | – | IC50 | 0.041 µM |

| Structure (SMILES) | target | assay | test system | setting | measurement | value |
| --- | --- | --- | --- | --- | --- | --- |
| COc1ccc(-n2ccnc2SCC(=O)Nc2cc(Cl)ccc2OC)c(OC)c1 | PFF0160c E182D | enzyme activity, inhibitor, absorbance | – | – | IC50 | > 10 µM |
| CN1C(=O)Cc2ccc(F)c(CCNCC[C@H]3CN(c4ccc5c(n4)NC(=O)CO5)C(=O)O3)c21 | KCNH2 (Homo sapiens, UniProt Q12809) | ion current, inhibitor, patch clamp | – | 2 min, pH 7.4 | IC50 | 10 µM |
| O=C(CSc1nccn1C1CCCCC1)Nc1cc(C(F)(F)F)ccc1Cl | PFF0160c | enzyme activity, inhibitor, absorbance | – | – | IC50 | 0.29 µM |
| CCn1cc(Cl)c2c(Cc3ccc(N4CCN(C)CC4)nc3)n(C)nc2c1=O | PFF0160c | enzyme activity, inhibitor | – | – | IC50 | 1.58 µM |
| CC(=O)c1c(C)c2cnc(Nc3ccc(C4CCN(CCS(C)(=O)=O)CC4)cn3)nc2n(C2CCCC2)c1=O | Cytochrome P450 2D6 (CYP2D6, Homo sapiens, UniProt P10635) | enzyme activity, inhibitor | human, liver microsomes | – | IC50 | > 10 µM |
| CCC1(c2ccccc2)NC(=O)N(NC(=O)c2ccc3noc(-c4ccccc4)c3c2)C1=O (centres unmarked) | PFF0160c E182D | enzyme activity, inhibitor, absorbance | – | – | IC50 | 6.11 µM |
| [2H]c1c([2H])c([C@]2([2H])CCCN2C(=O)C(C)(C)Oc2ccc3cn[nH]c3c2)c([2H])c([2H])c1C([2H])([2H])[2H] | Tyrosine-protein kinase JAK3, JH1 (JAK3, Homo sapiens, UniProt P52333) | binding, competition with immobilised ligand | – | 1 µM | remaining binding | 85% |
| CC(C)[C@H](NC(=O)[C@@H](N)CCCCN)C(=O)N[C@@H](CC(=O)O)C(=O)N1CCC[C@H]1C(=O)N[C@@H](CCCCN)C(=O)N[C@@H](Cc1ccccc1)C(=O)N[C@H](C(=O)N[C@@H](CO)C(=O)N[C@@H](Cc1ccccc1)C(=O)O)[C@@H](C)O | HLA class I histocompatibility antigen, B alpha chain | cell-free assay | – | – | IC50 | 37.3 µM |
| Cc1noc(-c2cccs2)c1C(=O)NCCc1cccc(Cl)c1 | PFF0160c E182D | enzyme activity, inhibitor, absorbance | – | – | IC50 | 4.12 µM |
| CCN(CC)C(=O)Oc1ccc(CCC(=O)N2CCC(Cc3ccccc3)CC2)cc1OC | Cholinesterase (BCHE, Homo sapiens, UniProt P06276) | enzyme activity, inhibitor, Ellman | – | – | IC50 | 5.6 µM |
| COc1ccc2c3c([nH]c2c1)CCN(C)CC3 | Voltage-dependent N-type calcium channel subunit alpha-1B (Homo sapiens, UniProt Q00975) | ion current, inhibitor, patch clamp | – | – | IC50 | 262 µM and > 180 µM |
| CC(C)(C)CC(=O)N[C@H]1[C@H]([C@H](O)[C@H](O)CO)OC(C(=O)O)=C[C@@H]1O | Sialidase-4 | enzyme activity, inhibitor | – | – | IC50 | 300 µM |
| C=CCn1c(SCC(=O)Nc2cc(C)ccc2OC)nc2sc(C)cc2c1=O | PFF0160c | enzyme activity, inhibitor, absorbance | – | – | IC50 | 7.53 µM |
| CCn1cc(C)c2c([C@H](N)c3ccc(C(F)(F)F)nc3)n(C)nc2c1=O | PFF0160c | enzyme activity, inhibitor | – | – | IC50 | 0.251 µM |
| CCCCCC(=O)N[C@H]1[C@H]([C@H](O)[C@H](O)CO)OC(C(=O)O)=C[C@@H]1O | Sialidase-4 | enzyme activity, inhibitor | – | – | IC50 | > 500 µM |
| CSCC[C@H](NC(=O)[C@@H](NC(=O)[C@H](CC(C)C)NC(=O)[C@@H](NC(=O)[C@H](CCCCN)NC(=O)[C@H](CC(N)=O)NC(=O)[C@H](Cc1ccc(O)cc1)NC(=O)[C@H](CCSC)NC(=O)[C@@H](N)CCCNC(=N)N)[C@@H](C)O)[C@@H](C)O)C(=O)O | HLA class I histocompatibility antigen, B alpha chain | cell-free assay | – | – | IC50 | 64.5 µM |

For quick reference, copied from above:
| Structure (SMILES) | target | assay | test system | setting | measurement | value |
| --- | --- | --- | --- | --- | --- | --- |
| [2H]c1c([2H])c([C@]2([2H])CCCN2C(=O)C(C)(C)Oc2ccc3cn[nH]c3c2)c([2H])c([2H])c1C([2H])([2H])[2H] | Tyrosine-protein kinase JAK3, JH1 (JAK3, Homo sapiens, UniProt P52333) | binding, competition with immobilised ligand | – | 1 µM | remaining binding | 85% |
| O=c1cc(NCCCNCc2sc(Br)c(Br)c2Br)[nH]c2ccccc12 | PFF0160c | enzyme activity, inhibitor, absorbance | – | – | IC50 | 0.591 µM |
